Results of several laboratories.
Each line is one published result; not all experiments were run side by side.
Technique: steady-state kinetics
B1: STH1425 (Symbiobacterium thermophilum, UniProt Q67PI3); chain MDKLRVAVVGYGNVGRYALEAVQAAPDMELVGVVRRKVLAATPPELTGVRVVTDISQLEGVQGALLCVPTRSVPEYAEAMLRRGIHTVDSYDIHGDLADLRRRLDPVAREHGAAAVISAGWDPGTDSIIRALLEFMAPKGITYTNFGPGMSMGHSVAVKAIPGVRDALSMTIPAGMGVHKRAVYVELEPGADFAEVERAIKTDPYFVRDETRVTQVESVSALMDVGHGVVMERKGVSGATHNQLFRFEMRINNPALTAQVMVAALRAAARQKPGCYTMIEIPVIDYLPGDREAWIRKLV
B2: enzyme (Triticum aestivum, UniProt A0A6J4BJG4); chain MPATQLPAGEAWDRRRELQAFDDTKAGVKGLVDAGVTALPPIFRHSPESLEGITSSNHVAGAIPTVDLAAPRREDAVALVRHAAGTVGFFQVVNHGVPAELMAGMLEGVRRFNEGPAEAKQAIYSRDQARKVRFASNFDLFSSAAANWRDTLFFHLAPDPAPSEELPEAVRDVVTEYGHAVTKVGLSVLELLSESLGLSSDHLRDMDCAENLNAVCQYYPPCPEPYLTWGTKRHTDPGFLTVLLQDGMGGLQVLVDGKTWVDVPPVPGAFIINIGDLLQLVSNDQFRSVEHRVLANKSKDTARVSVASFFNTNIERSTRLYGPITDGRNPPIYRSVTAREFIATFNRIGLDGRSLDQYRLDRDTPTPAVEGCE
B3: enzyme (Arabidopsis thaliana, UniProt Q9LTH3); chain MEELGVKRRIVLVPVPAQGHVTPIMQLGKALYSKGFSITVVLTQYNRVSSSKDFSDFHFLTIPGSLTESDLKNLGPFKFLFKLNQICEASFKQCIGQLLQEQGNDIACVVYDEYMYFSQAAVKEFQLPSVLFSTTSATAFVCRSVLSRVNAESFLLDMKDPKVSDKEFPGLHPLRYKDLPTSAFGPLESILKVYSETVNIRTASAVIINSTSCLESSSLAWLQKQLQVPVYPIGPLHIAASAPSSLLEEDRSCLEWLNKQKIGSVIYISLGSLALMETKDMLEMAWGLRNSNQPFLWVIRPGSIPGSEWTESLPEEFSRLVSERGYIVKWAPQIEVLRHPAVGGFWSHCGWNSTLESIGEGVPMICRPFTGDQKVNARYLERVWRIGVQLEGELDKGTVERAVERLIMDEEGAEMRKRVINLKEKLQASVKSRGSSFSSLDNFVNSLKMMNFM
B4: protein Y93A (Thermus thermophilus, UniProt Q5SKR5); chain MSAPKPFVIGIAGGTASGKTTLAQALARTLGERVALLPMDHYYKDLGHLPLEERLRVNYDHPDAFDLALYLEHAQALLRGLPVEMPVYDFRAATRSPRRTPVRPAPVVILEGILVLYPKELRDLMDLKVFVDADADERFIRRLKRDVLERGRSLEGVVAQYLEQVKPMHLHFVEPTKRYADVIVPRGGQNPVALEMLAAKALARLARMGAA
B5: protein (Gloriosa superba, UniProt A0A7D5Q548); chain MAEVVESRQWVMTAYAEEGLPTPEHVTLITTKVAVDAASIPEGHAAVQVLWISIDPYLRSGMLGRMDGLCFPPFPIGKVITTLGVGRIIRSKDASYCEGDIVLHTSVPVADYCIAPATMLRKIDMGTRISPLDYLTAFGLPGFAAWIAIHLIGNPKPGENVFISAAAGAVGMLAGQLAKLKGCRVVGSTGTDEKVNLLKEEFKFDDAFNYKKEADFDAALSKYLPSGIDIYVDNVGGKMLEAVLNHVNKKARIPLCGMISQYNQVWTERDGVRNLLNMIGKEVRMEGFIITSYLQQFQDFEQEIGEYLNEGKLVSKVKIVEGIEGFLESLLSLFSSSNVGKVILQVNK
B6: FNO G29L (Thermobifida fusca, UniProt Q47RA9); chain MIMIMASKSSPHDLPDVSGLSIAVLGGTLDQGRGLARRFAMAGHEVILGSRSAERAQAVAAELGEGLPVRGMDNAGAAEAGDVVIVAVPWDGHRALLESLKDVLAGKIVVDCVNPLGFDKRGAYALPVEEGSAAEQAAAILPDSRVVAAFHHVSAVLLLDPEVEKVDLDVLVLGDDREATDVVRALAARIPGVRGVYGGRLRNAHQVEAFTANLISINRRYKAHAGIRITDI
B7: enzyme (Trypanosoma cruzi, UniProt Q4DSA0); chain MAARTDDPRLLSLFSAQREEDADIVIIGFPYDEGCVRNGGRAGAKKGPAAFRFFLQRLGSVNNLELNVDASHLKLYDAGDITASTLEEAHEKLESKVFTVLARGAFPFVIGGGNDQSAPNGRAMLRAFPGDVGVINVDSHLDVRPPLSDGRVHSGTPFRQLLEESSFSGKRFVEFACQGSQCGALHAQYVRDHQGHLMWLSEVRKKGAVAALEDAFGLTGKNTFFSFDVDSLKSSDMPGVSCPAAVGLSAQEAFDMCFLAGKTPTVMMMDMSELNPLVEEYRSPRVAVYMFYHFVLGFATRSKPKAEN
B8: ycjS (Escherichia coli, UniProt P77503); chain MKSAMTSSPLRVAIIGAGQVADKVHASYYCTRNDLELVAVCDSRLSQAQALAEKYGNASVWDDPQAMLLAVKPDVVSVCSPNRFHYEHTLMALEAGCHVMCEKPPAMTPEQAREMCDTARKLGKVLAYDFHHRFALDTQQLREQVTNGVLGEIYVTTARALRRCGVPGWGVFTNKELQGGGPLIDIGIHMLDAAMYVLGFPAVKSVNAHSFQKIGTQKSCGQFGEWDPATYSVEDSLFGTIEFHNGGILWLETSFALNIREQSIMNVSFCGDKAGATLFPAHIYTDNNGELMTLMQREIADDNRHLRSMEAFINHVQGKPVMIADAEQGYIIQQLVAALYQSAETGTRVEL
B9: enzyme A178R/D177A/P184R (Levilactobacillus brevis, UniProt Q03Q85); chain MKVTVVGCTHAGTFAIKQILAEHPDAEVTVYERNDVISFLSCGIALYLGGKVADPQGLFYSSPEELQKLGANVQMNHNVLAIDPDQKTVTVEDLTNHAQTTESYDKLVMTSGSWPIVPKIPGIDSDRVKLCKNWAHAQALIEDAKEAKRITVIGAGYIGAELAEAYSTTGHDVTLIARMARVMRKYFDADFTDVIEQDYRDHGVQLALGETVESFTDSATGLTIKTDKNSYETDLAILCIGFRPNTDLLKGKVDMAPNGAIITDDYMRSSNPDIFAAGDSAAVHYNPTHQNAYIPLATNAVRQGILVGKNLVKPTVKYMGTQSSSGLALYDRTIVSTGLTLAAAKQQGLNAEQVIVEDNYRPEFMPSTEPVLMSLVFDPDTHRILGGALMSKYDVSQSANTLSVCIQNENTIDDLAMVDMLFQPNFDRPFNYLNILAQAAQAKVAQSVNA

Molecule = B1 (STH1425); substrate = O=C(O)C(=O)Cc1ccccc1; setting = pH 9, 30 °C, reductive amination, with: NH4Cl 200 mM, NADPH 0.5 mM; Km = 15200 µM
Molecule = B2 (enzyme); substrate = O=C1[C@@H](O[C@@H]2O[C@H](CO)[C@@H](O)[C@H](O)[C@H]2O)Oc2ccccc2N1O; setting = pH 7.2, 30 °C; Km = 318 µM
Molecule = B3 (enzyme); substrate = O=c1ccn([C@@H]2O[C@H](CO[P@@](=O)(O)O[P@@](=O)(O)O[C@H]3O[C@H](CO)[C@@H](O)[C@H](O)[C@H]3O)[C@@H](O)[C@H]2O)c(=O)[nH]1; setting = pH 7.5, 25 °C; Km = 10.5 µM
Molecule = B4 (protein Y93A); substrate = Nc1ccn([C@@H]2O[C@H](CO)[C@@H](O)[C@H]2O)c(=O)n1; setting = pH 7.2, 25 °C, KCl 100 mM, with: ATP 100–200 µM; Km = 383 µM
Molecule = B5 (protein); substrate = O=C/C=C/c1ccc(O)cc1; setting = pH 7.5, 30 °C, not purified, with: NADPH 1 mM; Km = 319 µM
Molecule = ftsH (Escherichia coli, UniProt P0AAI3); substrate = Nc1ncnc2c1ncn2[C@@H]1O[C@H](COP(=O)(O)OP(=O)(O)OP(=O)(O)O)[C@@H](O)[C@H]1O; setting = pH 7.8, 37 °C, with: Triton X-100 micelles; Km = 400 µM
Molecule = enzyme (Pseudomonas aeruginosa, UniProt Q9HXU0); substrate = Nc1ncnc2c1ncn2[C@@H]1O[C@H](COP(=O)(O)OP(=O)(O)OP(=O)(O)O)[C@@H](O)[C@H]1O; setting = pH 7.5, 37 °C, apparent; Km = 627 µM
Molecule = B6 (FNO G29L); substrate = CCC[n+]1cccc(C(N)=O)c1; setting = pH 8, 25 °C, with: F420H2 40 µM; Km = 18000 µM
Molecule = B7 (enzyme); substrate = N=CN[C@@H](CCC(=O)O)C(=O)O; setting = pH 9.5, 22 °C, apparent; Km = 40000 µM
Molecule = B8 (ycjS); substrate = CO[C@@H]1O[C@H](CO)[C@@H](O)C(=O)[C@H]1O; setting = pH 7, 30 °C, with: NADH 0.3 mM; Km = 800 µM
Molecule = SIRT6 (Homo sapiens, UniProt Q8N6T7); substrate = CSCC[C@H](NC(=O)[C@H](CC(C)C)NC(=O)[C@H](CCCCNC(C)=O)NC(=O)[C@H](CCCCN)NC(=O)[C@H](Cc1c[nH]cn1)NC(=O)[C@H](CCCNC(=N)N)NC(=O)[C@H](CO)NC(=O)[C@@H](NC(=O)[C@H](CO)NC(=O)[C@H](CCC(N)=O)NC(=O)CNC(=O)[C@H](CCCCN)NC(=O)[C@@H](N)CCCCN)[C@@H](C)O)C(=O)N[C@@H](Cc1ccccc1)C(=O)N[C@@H](CCCCN)C(=O)N[C@H](C(=O)N[C@@H](CCC(=O)O)C(=O)NCC(=O)O)[C@@H](C)O; setting = pH 7.5, 37 °C, with: NAD+ 800 µM, SIRT6 10 µM; Km = 1600 µM
Molecule = B9 (enzyme A178R/D177A/P184R); substrate = NC(=O)C1=CN([C@@H]2O[C@H](COP(=O)(O)OP(=O)(O)OC[C@H]3O[C@@H](n4cnc5c(N)ncnc54)[C@H](O)[C@@H]3O)[C@@H](O)[C@H]2O)C=CC1; setting = pH 7.5, 37 °C; Km = 1130 µM
Molecule = FITM2 (Homo sapiens, UniProt Q8N6M3); substrate = CCCCCCCC/C=C\CCCCCCCC(=O)SCCNC(=O)CCNC(=O)[C@H](O)C(C)(C)COP(=O)(O)OP(=O)(O)OC[C@H]1O[C@@H](n2cnc3c(N)ncnc32)[C@H](O)[C@@H]1OP(=O)(O)O; setting = pH 7.5, 37 °C, apparent; Km = 10 µM

Excerpt of the above:
Molecule = B9 (enzyme A178R/D177A/P184R); substrate = NC(=O)C1=CN([C@@H]2O[C@H](COP(=O)(O)OP(=O)(O)OC[C@H]3O[C@@H](n4cnc5c(N)ncnc54)[C@H](O)[C@@H]3O)[C@@H](O)[C@H]2O)C=CC1; setting = pH 7.5, 37 °C; Km = 1130 µM
Molecule = B6 (FNO G29L); substrate = CCC[n+]1cccc(C(N)=O)c1; setting = pH 8, 25 °C, with: F420H2 40 µM; Km = 18000 µM
